Results collected from several papers.
Parts stem from different laboratories: compare values within a part only. Changes are numbered by the printed parent chain.

Block 1 — method: RNAcompete; molecule type: RNA; matrix: in vitro; concentration: 20 nM; setting: 7-mer, probes averaged, single round; baseline: mean of 7-mers; reading: higher = stronger binding; measurement: 7-mer Z-score
Target: PABPC1L2, full length, GST fusion (mouse, UniProt A0ABA7IW68)
Construct (chain): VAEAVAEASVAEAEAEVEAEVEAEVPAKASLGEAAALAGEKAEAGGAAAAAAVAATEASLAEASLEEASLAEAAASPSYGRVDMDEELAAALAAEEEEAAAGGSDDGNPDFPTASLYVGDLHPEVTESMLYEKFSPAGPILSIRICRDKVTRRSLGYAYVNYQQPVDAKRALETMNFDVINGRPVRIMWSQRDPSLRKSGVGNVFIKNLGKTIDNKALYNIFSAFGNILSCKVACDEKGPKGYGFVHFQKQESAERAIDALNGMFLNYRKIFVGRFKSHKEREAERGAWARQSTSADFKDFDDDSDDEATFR
AGGGGCU: 0.45
UACUCCC: -0.277
GGAUUGA: -0.11
AGUUGUA: -0.157
UUCUACA: -0.228
AUGGAUU: -0.146
GGUAUAU: -0.0246
UAUCUAC: -0.177
UAGUUAC: -0.228
GAGCGGU: -0.0699
UGCAGUA: -0.22
CGUGCAG: -0.0917
UCACUUU: -0.307
GCCCAAA: 0.505
AAGACAC: 0.35
CGUAAAA: 3.66
AAGUUUU: -0.204
UCCACUA: -0.286
GCAACUU: -0.148
GGUGCGA: 0.236

Block 2 — method: DHFR PCA, deep sequencing; matrix: yeast; added: (+)-ABA 1.4 µM; baseline: wild-type fitted maximum; reading: higher = stronger binding; measurement: relative binding score
Target: ABI1, truncated, D143A, DHFR fusion (Arabidopsis thaliana)
Setting: methotrexate growth selection, single substitutions
Starting sequence: PYL1, truncated, DHFR fusion (Arabidopsis thaliana); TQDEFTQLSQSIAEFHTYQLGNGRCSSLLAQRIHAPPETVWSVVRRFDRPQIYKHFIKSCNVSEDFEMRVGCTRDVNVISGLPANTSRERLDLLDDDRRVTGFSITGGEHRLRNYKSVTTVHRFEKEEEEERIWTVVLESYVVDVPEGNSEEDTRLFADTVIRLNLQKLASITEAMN
E152C: 25.6%
V44Q: -4.3%
T173K: -8.1%
Q19Y: 20%
Y18F: -2.39%
V145T: -7.28%
V142P: -6.16%
Y141L: -9.22%
D144W: -22.6%
Q31F: -14.2%
V137L: 0.0465%
S150Q: 5.8%
E4H: 51.2%
F47K: -4.92%
D95W: -18.7%
R155H: -1.63%
R90D: 3.84%
R69Y: 21.1%

Block 3 — target: CCNB3, cyclin fold, Cln2 fusion (human); method: yeast growth competition, sequencing; matrix: yeast; setting: weak parent motif; baseline: not given; reading: higher = stronger binding; measurement: normalised enrichment score
Starting sequence: PKMYT1 docking peptide (human); SFEPRNLLSLFED; partner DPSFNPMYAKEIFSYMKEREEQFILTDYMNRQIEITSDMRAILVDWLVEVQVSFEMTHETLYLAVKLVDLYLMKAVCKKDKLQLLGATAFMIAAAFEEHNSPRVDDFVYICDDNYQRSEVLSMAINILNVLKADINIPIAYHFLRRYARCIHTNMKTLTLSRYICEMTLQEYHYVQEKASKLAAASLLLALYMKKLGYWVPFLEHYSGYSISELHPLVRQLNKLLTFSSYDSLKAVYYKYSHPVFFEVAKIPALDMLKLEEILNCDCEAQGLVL
SFEPRNWLSLFED [L7W]: 0.302
SFEPRNLLSLMED [F11M]: 0.282
SFEPRNLLSLFEE [D13E]: 0.0736
SFEPHNLLSLFED [R5H]: -0.0366
SFEPRNLLSLFVD [E12V]: 0.184
SFEPRNLHSLFED [L8H]: 0.203
SFEPRNLASLFED [L8A]: 0.45
SFEPRILLSLFED [N6I]: 0.663
SFEPRNLLSLFES [D13S]: 0.174
RFEPRNLLSLFED [S1R]: 0.271
SFEPRNLQSLFED [L8Q]: 0.281
SFEPRNLLSLVED [F11V]: 0.275
SREPRNLLSLFED [F2R]: 0.269
SFEPRKLLSLFED [N6K]: 0.485
SFEPRNLLSLFCD [E12C]: 0.566
SFEPRNLLALFED [S9A]: 0.609
SFEPRNLLSPFED [L10P]: 0.346
SFEPRNLLSHFED [L10H]: 0.648
SFEPRNLLGLFED [S9G]: 0.365
SFEMRNLLSLFED [P4M]: 0.549
SFEPRNLLSLFEG [D13G]: 0.76
SFEPRNLLSLFEW [D13W]: 0.373
SFEPRNLLSMFED [L10M]: 0.0159
SFEPRNLLSLFEF [D13F]: 0.643
SFEPNNLLSLFED [R5N]: 0.286

Block 4 — method: protein-binding microarray; molecule type: double-stranded DNA, one strand shown; matrix: in vitro; concentration: not given; reading: higher = stronger binding; measurement: E-score
Target: Hepatocyte nuclear factor 3-beta, forkhead domain (FOXA2, Homo sapiens, UniProt Q9Y261, residues 142-269)
Setting: k-mer, scored over probes, only values ≥0.25
Construct (chain): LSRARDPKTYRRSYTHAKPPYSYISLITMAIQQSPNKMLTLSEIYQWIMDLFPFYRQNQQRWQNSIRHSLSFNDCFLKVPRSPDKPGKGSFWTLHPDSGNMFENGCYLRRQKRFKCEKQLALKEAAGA
ATGTATCA: 0.301
AGCATATG: 0.276
AACAGACA: 0.317
GCAAATAA: 0.314
ATATTCTA: 0.282
AGATAGTA: 0.258
CTTAACTA: 0.274
AACAAATC: 0.315
ATGATTGC: 0.251
AACTATAC: 0.292
ATTGTCAA: 0.31
TGTGTCAA: 0.324
ATAGTAAA: 0.279
CATCAATA: 0.323
AATGTAAG: 0.276
TATCATAA: 0.338
AATGTTAT: 0.307
TATAATAA: 0.272

Block 5 — method: RNA Bind-n-Seq; molecule type: RNA; matrix: in vitro; concentration: 365 nM; baseline: no-protein control; reading: higher = stronger binding; measurement: RBNS enrichment (R)
Target: RNA binding protein fox-1 homolog 2, RRM domain, GST-SBP tag (RBFOX2, Homo sapiens, UniProt O43251-10, residues 100-194)
Setting: natural RNA segment, single round, ends assumed
Construct (chain): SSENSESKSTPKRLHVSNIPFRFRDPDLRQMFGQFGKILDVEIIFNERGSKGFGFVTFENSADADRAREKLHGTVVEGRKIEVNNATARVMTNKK
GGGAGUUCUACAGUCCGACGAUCUAAAACCCAAUACUUUUGUCCAAUGUGGUUGGUCAAAUCAACUGAAUAAAUUCAGUAUUUUGCCUUAGUUGUUGUGAAGCCUGUGAUUCUCAGCUGGGACUGAGGAUGGGUGGAAUUCUCGGGUGCCAA: 0.83
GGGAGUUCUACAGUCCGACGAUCCACUUGGUUUGGGGGUUCAGGCUCCAGGAUCAAUUUAGAGGGAUCCUUGAACCCAGCCCCGUGAACAAUCUAUCAUAGGACUUUCAGGUAUUUUUACUUUUAUUUUUUGAUGGAAUUCUCGGGUGCCAA: 0.364
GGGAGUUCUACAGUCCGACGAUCUGACAGUGUGCAUCACCUCUGGGCCAAGGACAAGCCAUUGAUCUAAAUGCCUCAGAUGCCCGGGAGGGCCUCUGGUGCCACUGCAUAGUAUAUACUAACAUCAUUCUGCCUGGAAUUCUCGGGUGCCAA: 0.561
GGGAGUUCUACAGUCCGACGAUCUUAGGGUUUAAAAUAGGGGAGCCUGUGGUGGCCUGGUGCACAGGGCUAGAACGAGAGUGCCUCCCCUUCUUGUGUCCUGGCUGGCUGGGAUGCUGGUGGCUCUUCAGAGGUGGAAUUCUCGGGUGCCAA: 0.682
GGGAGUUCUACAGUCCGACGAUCCCCCAACAGACACUGACAGGGUCCAUGGAAUUCUUCGGGAAAUCCUCCAAGGACUCUUGUCAGCUGUGUUGGAAGCCAAAGCCAGCUUAGUGGGACUUCCGCGUCUCUCCUGGAAUUCUCGGGUGCCAA: 0.249
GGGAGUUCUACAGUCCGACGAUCUCAAGAAUUUUCUGGAAAUUACUCCCUUUCACAUGGUUGAACUCUUAAGUUGACCAGUUCUCAUAGCUCUAUCACUAGAAUGGUUUGCAGAUACCCCAAACAUACUAUGAUGGAAUUCUCGGGUGCCAA: 0.418
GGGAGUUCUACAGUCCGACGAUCCCUUUAUAGAGAAAGCCUUCCCUCAGCUCUUUUGUUACCUUGAGAUUUGCCAGUUUGGUGAAUACAGAUUGGUUCAUGGUUGUAGGUGUAGCUCAGAGUGCUUGUCUAACUGGAAUUCUCGGGUGCCAA: 0.272
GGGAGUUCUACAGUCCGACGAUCCCCUUUAAAGUCAUGUUGACUAAUGUUUUCCUCCUUGUUUGUAUUCAGAUUUCCAAAAUUUCACUCAUACAAGGGAAGAGACUCCAUUUAGCUUAACGGUAGUCUUUAGAUGGAAUUCUCGGGUGCCAA: 0.322
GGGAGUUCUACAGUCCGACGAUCAGGAGAGAAGAAAGUGUAGAUAGUUAAAAGACUGCAGCUGCUGAAGUUCUGAGCCGGGCAAGUCGAGAGGGCUGUUGGACAGCUGCUUGUGGGCCCGGAGUAAUCAGGCAUGGAAUUCUCGGGUGCCAA: 0.621
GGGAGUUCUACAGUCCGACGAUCAAUGUUUAGCUCUCACAAAGAGAGAUAACCUUGGAUACAUCUUCAUCUUCUAGCUAUAUAAAGAAACAAUCCAGCUGCUUAGAAGCUGUGACUAAUACAGAGUUGACUUUUGGAAUUCUCGGGUGCCAA: 0.288
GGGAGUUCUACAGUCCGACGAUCGAAAGCCGCUCUAUUUUGGUCUCUGUGAUAUUUUAAAUGCGUGACAGAAGCAAGCAAAUAAAGUCAGGAAGAAAUAUAUAUAUGAGAUAAUAUAGAUUGUAUUGAAAUCUUGGAAUUCUCGGGUGCCAA: 1.87
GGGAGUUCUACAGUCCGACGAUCGGACCCCCUGGGAAAGACAUGCAGUGUAGAUAAUGACUUUAGUAGCUCUCCAAUGAGAGCCUGACUGGCUUCUAGAGCAGGCUGUCACAGAAGGGGAGGUAGGGUCGACUUGGAAUUCUCGGGUGCCAA: 0.474

A few entries again (block 3):
SFEPRNLQSLFED [L8Q]: 0.281
SFEPRNLLSLVED [F11V]: 0.275
SREPRNLLSLFED [F2R]: 0.269
SFEPRKLLSLFED [N6K]: 0.485
SFEPRNLLSLFCD [E12C]: 0.566
SFEPRNLLALFED [S9A]: 0.609
SFEPRNLLSPFED [L10P]: 0.346
SFEPRNLLSHFED [L10H]: 0.648
SFEPRNLLGLFED [S9G]: 0.365
SFEMRNLLSLFED [P4M]: 0.549
SFEPRNLLSLFEG [D13G]: 0.76
SFEPRNLLSLFEW [D13W]: 0.373
SFEPRNLLSMFED [L10M]: 0.0159
SFEPRNLLSLFEF [D13F]: 0.643
SFEPNNLLSLFED [R5N]: 0.286
